{"data": "Experimental data of several laboratories", "note": "Lines come from different studies, so protocols differ."}
{"Compound": "C[C@@H]1CCC[C@H](n2cnc(-c3cc(Cl)ccc3-n3cc(Cl)nn3)cc2=O)c2cc(ccn2)-c2c(cnn2C(F)F)NC1=O", "host": "human", "matrix": "plasma", "route": "oral", "dose": "500 mg", "setting": "single dose, fasted, healthy volunteers", "Cmax": "1850 ng/mL"}
{"Compound": "Nc1ccc(-c2nc([C@H]3CCc4cc(-c5cc(Cl)ccc5-n5cnnn5)cc(=O)n43)c(F)[nH]2)c(F)n1", "host": "human", "matrix": "plasma", "route": "oral", "dose": "5 mg", "setting": "single dose, fasted", "Cmax": "42.3 ng/mL"}
{"Compound": "CC(C)[C@@H](CS(=O)(=O)C(C)C)N1C(=O)[C@@](C)(CC(=O)O)C[C@H](c2cccc(Cl)c2)[C@H]1c1ccc(Cl)cc1", "host": "human", "matrix": "plasma", "route": "oral", "dose": "60 mg", "setting": "single dose, fed", "Cmax": "544 ng/mL"}
{"Compound": "COc1cccc(OCCCN)c1-c1cc(Nc2cnc(C#N)cn2)n[nH]1", "host": "human", "matrix": "plasma", "route": "intravenous", "dose": "80 mg/m²", "setting": "patients, infusion", "Cmax": "661 ng/mL"}
{"Compound": "COc1cccc(-c2ccc(NC(=O)C3=C(C(=O)O)CCC3)c(F)c2)c1", "host": "male human", "matrix": "plasma", "route": "oral", "dose": "10 mg", "setting": "single dose, fed, healthy volunteers", "Cmax": "1880 ng/mL"}
{"Compound": "CC(C)(Sc1ccncc1-c1ccc(C#N)c2ccccc12)C(=O)O", "host": "male human", "matrix": "plasma", "route": "oral", "dose": "10 mg", "setting": "single dose, fasted", "Cmax": "21.9 ng/mL"}
{"Compound": "CNCc1ccc(-c2[nH]c3cc(F)cc4c3c2CCNC4=O)cc1", "host": "human", "matrix": "plasma", "route": "oral", "dose": "480 mg", "setting": "multiple doses, twice daily, steady state, patients", "Cmax": "3170 ng/mL"}
{"Compound": "N#Cc1ccc(-c2cnc3ccc(-c4ccc(C(=O)N5CCOCC5)cc4)cn23)cc1", "host": "human", "matrix": "plasma", "route": "oral", "dose": "10 mg", "setting": "single dose, fed, healthy volunteers", "Cmax": "733 ng/mL"}
{"Compound": "Nc1ncc(-c2cnn(CCO)c2)c2scc(-c3ccc(NC(=O)Nc4cccc(F)c4)cc3)c12", "host": "human", "matrix": "plasma", "route": "oral", "dose": "540 mg", "setting": "patients", "Cmax": "521 ng/mL"}
{"Compound": "Cc1c(Cl)c(C)[n+]([O-])c(Cl)c1-c1noc(-c2cc(O)c(O)c([N+](=O)[O-])c2)n1", "host": "male human", "matrix": "plasma", "route": "oral", "dose": "50 mg", "setting": "single dose, fasted, healthy volunteers, tablet", "Cmax": "2070 ng/mL"}
{"Compound": "Cc1ccsc1C(=O)Nc1cc(CN2CCN(C(=O)CO)CC2)ccc1/C=C/c1n[nH]c2ccccc12", "host": "human", "matrix": "plasma", "route": "oral", "dose": "50 mg/day", "setting": "patients", "Cmax": "3030 ng/mL"}
{"Compound": "O=C(c1nc2n(n1)[C@H](c1ccccc1)C[C@@H]2F)C1CC1", "host": "human", "matrix": "plasma", "route": "oral", "dose": "150 mg", "setting": "single dose, fasted, healthy volunteers", "Cmax": "1120 ng/mL"}
{"Compound": "CNc1nc(Nc2ccc(-n3cnc(C)n3)c(OC)c2)nc2c1CC[C@H]2c1ccc(F)cc1", "host": "human", "matrix": "plasma", "route": "oral", "dose": "100 mg", "setting": "single dose, healthy volunteers", "Cmax": "280 ng/mL"}
{"Compound": "CC#CC(=O)N1CCC[C@H]1c1nc(-c2ccc(C(=O)Nc3ccccn3)cc2)c2c(N)nccn12", "host": "human", "matrix": "plasma", "route": "oral", "dose": "100 mg", "setting": "single dose, fasted", "Cmax": "602 ng/mL"}
{"Compound": "CNC(=O)c1ccc(-c2cnc3ncc(Cc4ccc5ncccc5c4)n3n2)cc1F", "host": "human", "matrix": "plasma", "route": "oral", "dose": "100 mg twice daily", "setting": "multiple doses, steady state, patients", "Cmax": "660 ng/mL"}
{"Compound": "CCCCCN1C[C@H](O)[C@@H](O)[C@H](O)[C@@H]1CO", "host": "male human", "matrix": "plasma", "route": "oral", "dose": "300 mg", "setting": "single dose, fasted, healthy volunteers", "Cmax": "2820 ng/mL"}
{"Compound": "CS(=O)(=O)n1cc2c(n1)CN([C@H]1CO[C@H](c3cc(F)ccc3F)[C@@H](N)C1)C2", "host": "male human", "matrix": "plasma", "route": "oral", "dose": "25 mg", "setting": "single dose, fasted", "Cmax": "750 nM"}
{"Compound": "Cc1cc(-c2ccc(C(=O)[C@@H]3CCCC[C@H]3C(=O)Nc3cnn4c3C(=O)NCC4)cc2)n[nH]1", "host": "human", "matrix": "plasma", "route": "oral", "dose": "25 mg", "setting": "single dose, fasted, healthy volunteers", "Cmax": "27.1 nM"}
{"Compound": "C[C@H](N)C(=O)N1C[C@H](CCCB(O)O)[C@](N)(C(=O)O)C1", "host": "human", "matrix": "plasma", "route": "oral", "dose": "100 mg twice daily", "setting": "multiple doses, patients", "Cmax": "2050 ng/mL"}
{"Compound": "C#C[C@]1(CO)O[C@@H](n2cnc3c(N)nc(F)nc32)C[C@@H]1O", "host": "human", "matrix": "plasma", "route": "oral", "dose": "400 mg", "setting": "single dose, fasted", "Cmax": "9910 nM"}
{"Compound": "CCCOc1ccc([C@H]2CNC(=O)N2c2ccc3[nH]cnc3c2)cc1", "host": "human", "matrix": "plasma", "route": "oral", "dose": "30 mg", "setting": "single dose, fasted", "Cmax": "91.4 ng/mL"}
{"Compound": "CN1CC[C@@H](NC(=O)Nc2ccc(C#N)cc2)C[C@@H]1c1nc2ccccc2[nH]1", "host": "human", "matrix": "plasma", "route": "oral", "dose": "100 mg", "setting": "single dose, patients", "Cmax": "1020 ng/mL"}
{"Compound": "CNC(=O)c1ccccc1Sc1ccc2c(/C=C/c3ccccn3)n[nH]c2c1", "host": "human", "matrix": "plasma", "route": "oral", "dose": "7 mg", "setting": "single dose, fed", "Cmax": "23.3 ng/mL"}
{"Compound": "CCOc1cc([C@@H](CS(C)(=O)=O)N2C(=O)c3cccc(NC(C)=O)c3C2=O)ccc1OC", "host": "human", "matrix": "plasma", "route": "oral", "dose": "30 mg", "setting": "single dose, healthy volunteers", "Cmax": "298 ng/mL"}
{"Compound": "C=C(C)[C@@H]1CC[C@]2(NCCN3CCS(=O)(=O)CC3)CC[C@]3(C)[C@H](CC[C@@H]4[C@@]5(C)CC=C(C6=CC[C@@](CF)(C(=O)O)CC6)C(C)(C)[C@@H]5CC[C@]43C)[C@@H]12", "host": "human", "matrix": "plasma", "route": "oral", "dose": "80 mg", "setting": "multiple doses, once daily, patients", "Cmax": "750 ng/mL"}
{"Compound": "O=C(CCCCCCC(=O)Nc1ccccc1)NO", "host": "human", "matrix": "serum", "route": "oral", "dose": "600 mg", "setting": "patients", "Cmax": "2390 nM"}
{"note": "Repeated from above:"}
{"Compound": "C#C[C@]1(CO)O[C@@H](n2cnc3c(N)nc(F)nc32)C[C@@H]1O", "host": "human", "matrix": "plasma", "route": "oral", "dose": "400 mg", "setting": "single dose, fasted", "Cmax": "9910 nM"}
{"Compound": "Nc1ccc(-c2nc([C@H]3CCc4cc(-c5cc(Cl)ccc5-n5cnnn5)cc(=O)n43)c(F)[nH]2)c(F)n1", "host": "human", "matrix": "plasma", "route": "oral", "dose": "5 mg", "setting": "single dose, fasted", "Cmax": "42.3 ng/mL"}
